{"data": "Results pooled from the literature", "note": "Lines come from different studies, so protocols differ. Numbers after ± are the reported error."}
{"Compound": "CCN(CC)c1ccc(C=NNC(=O)CSc2nc3ccccc3c(=O)n2Cc2ccc(S(N)(=O)=O)cc2)c(O)c1", "cell line": "Hs-578T", "assay": "NCI five-dose screen", "endpoint": "CC50", "value": "> 100 µM"}
{"Compound": "CC(C)=CCc1c(O)cc(O)cc1-c1cc2ccc(O)c(CC=C(C)C)c2o1", "cell line": "MCF7", "assay": "cell growth, MTT", "setting": "3.6 µg/mL, 48 h", "endpoint": "cell survival", "value": "93.94 ± 0.82%"}
{"Compound": "O=C1CCP(=S)(c2ccccc2)CC1", "cell line": "PC-3", "assay": "trypan blue", "setting": "IC50, 72 h", "endpoint": "viability reduction", "value": "98%"}
{"Compound": "CN1CCN(C2(CNC3CCN(c4cccc(-c5cc6cc(F)ccc6[nH]5)c4)CC3)CCC2)CC1", "cell line": "SK-MEL-28", "endpoint": "CC50", "value": "6.28 µM"}
{"Compound": "Nc1ncnc2c1ncn2[C@@H]1O[C@@H]2COP(=O)(O)O[C@H]3[C@@H](O)[C@H](n4cnc5c(=O)[nH]cnc54)O[C@@H]3COP(=O)(O)O[C@H]2[C@H]1O", "cell line": "HFF-1", "assay": "RNA sequencing, refers to: Reactome antigen cross-presentation", "setting": "upregulated pathways", "how to read": "baseline: mock", "endpoint": "fold enrichment", "value": 5.17}
{"Compound": "Nc1ncc(-c2nc(N3CCOCC3)nc(N3CCOCC3)n2)c(C(F)F)n1", "cell line": "T98G", "setting": "72 h", "endpoint": "GI50", "value": "0.118 µM"}
{"Compound": "Oc1cc(O)cc(-c2cc3ccc(O)cc3o2)c1", "cell line": "MCF7", "assay": "cell growth, MTT", "setting": "1.8 µg/mL, 48 h", "endpoint": "cell survival", "value": "86.04 ± 0.41%"}
{"Compound": "CC(C)N1CCC(NC2CCN(c3cccc(-c4cc5cc(F)ccc5[nH]4)c3)CC2)CC1", "cell line": "SK-MEL-2", "endpoint": "CC50", "value": "7.25 µM"}
{"Compound": "CN1CCN(S(=O)(=O)c2cc([N+](=O)[O-])ccc2N(CCOS(C)(=O)=O)CCOS(C)(=O)=O)CC1", "cell line": "sample C B-ALL PDX cells", "assay": "cell viability", "system": "ex vivo", "setting": "48 h, together with: AKR1C3 inhibitor 1 µM, 1 h pretreatment", "endpoint": "IC50", "value": "4.14 µM"}
{"Compound": "Cn1cncc1C1=CN(c2ncnc3[nH]cnc23)CCS1", "cell line": "CCRF-CEM", "setting": "leukaemia cell line", "endpoint": "CC50", "value": "> 200 µM"}
{"Compound": "Oc1ccc(C2(c3ccc(O)cc3)c3ccccc3-c3ccccc32)cc1", "cell line": "HepG2 spheroids", "assay": "Hoechst flow cytometry", "setting": "0.1 µM, 24 h", "endpoint": "S phase cells", "value": "8.08 ± 2.46%"}
{"Compound": "COc1c(CCC[P+](c2ccccc2)(c2ccccc2)c2ccccc2)cc2c(c1OC)OCO2.[I-]", "cell line": "CCRF-CEM", "assay": "SRB", "endpoint": "Log10LC50", "value": "> -4 log M"}
{"Compound": "C[C@H]1[C@H](C)CC[C@]2(C(=O)O)CC[C@]3(C)C(=CC[C@@H]4[C@@]5(C)CC[C@H](O)C(C)(C)[C@@H]5CC[C@]43C)[C@H]12", "cell line": "3T3", "assay": "cell growth, MTT", "setting": "100 µg/mL, 48 h", "endpoint": "cell survival", "value": "31.6 ± 0.51%"}
{"Compound": "COc1ccc2c(c1)[nH]c1c(C)nccc12", "cell line": "DU-145", "assay": "bisulfite pyrosequencing, refers to: RASSF1A promoter CpG site 8", "setting": "concentration not given", "how to read": "baseline: vehicle", "endpoint": "methylation reduction", "value": "3.83%"}
{"Compound": "COc1c(C)c2c(c(O)c1C/C=C(\\C)CCC(=O)O)C(=O)OC2", "cell line": "SK-HEP1", "assay": "cell proliferation", "system": "liver cancer", "endpoint": "IC50", "value": "0.302 µM"}
{"Compound": "COc1cc(CCC[P+](c2ccccc2)(c2ccccc2)c2ccccc2)c(OC)c2c1OCO2.[I-]", "cell line": "CCRF-CEM", "assay": "SRB", "endpoint": "Log10LC50", "value": "> -4 log M"}
{"Compound": "COc1cnc(OC)n2nc(NS(=O)(=O)c3c(OCC(F)F)cccc3C(F)(F)F)nc12", "cell line": "HEK293T", "assay": "cytotoxicity, CCK-8", "setting": "3.13 µM, 72 h", "endpoint": "inhibition", "value": "0%"}
{"note": "Excerpt of the above:"}
{"Compound": "CN1CCN(C2(CNC3CCN(c4cccc(-c5cc6cc(F)ccc6[nH]5)c4)CC3)CCC2)CC1", "cell line": "SK-MEL-28", "endpoint": "CC50", "value": "6.28 µM"}
{"Compound": "O=C1CCP(=S)(c2ccccc2)CC1", "cell line": "PC-3", "assay": "trypan blue", "setting": "IC50, 72 h", "endpoint": "viability reduction", "value": "98%"}
